Measurements collected from several papers.
Parts stem from different laboratories: compare values within a part only. Changes are numbered by the printed parent chain.
UniProt P07949, sequence (whole entry, unmodified, looked up): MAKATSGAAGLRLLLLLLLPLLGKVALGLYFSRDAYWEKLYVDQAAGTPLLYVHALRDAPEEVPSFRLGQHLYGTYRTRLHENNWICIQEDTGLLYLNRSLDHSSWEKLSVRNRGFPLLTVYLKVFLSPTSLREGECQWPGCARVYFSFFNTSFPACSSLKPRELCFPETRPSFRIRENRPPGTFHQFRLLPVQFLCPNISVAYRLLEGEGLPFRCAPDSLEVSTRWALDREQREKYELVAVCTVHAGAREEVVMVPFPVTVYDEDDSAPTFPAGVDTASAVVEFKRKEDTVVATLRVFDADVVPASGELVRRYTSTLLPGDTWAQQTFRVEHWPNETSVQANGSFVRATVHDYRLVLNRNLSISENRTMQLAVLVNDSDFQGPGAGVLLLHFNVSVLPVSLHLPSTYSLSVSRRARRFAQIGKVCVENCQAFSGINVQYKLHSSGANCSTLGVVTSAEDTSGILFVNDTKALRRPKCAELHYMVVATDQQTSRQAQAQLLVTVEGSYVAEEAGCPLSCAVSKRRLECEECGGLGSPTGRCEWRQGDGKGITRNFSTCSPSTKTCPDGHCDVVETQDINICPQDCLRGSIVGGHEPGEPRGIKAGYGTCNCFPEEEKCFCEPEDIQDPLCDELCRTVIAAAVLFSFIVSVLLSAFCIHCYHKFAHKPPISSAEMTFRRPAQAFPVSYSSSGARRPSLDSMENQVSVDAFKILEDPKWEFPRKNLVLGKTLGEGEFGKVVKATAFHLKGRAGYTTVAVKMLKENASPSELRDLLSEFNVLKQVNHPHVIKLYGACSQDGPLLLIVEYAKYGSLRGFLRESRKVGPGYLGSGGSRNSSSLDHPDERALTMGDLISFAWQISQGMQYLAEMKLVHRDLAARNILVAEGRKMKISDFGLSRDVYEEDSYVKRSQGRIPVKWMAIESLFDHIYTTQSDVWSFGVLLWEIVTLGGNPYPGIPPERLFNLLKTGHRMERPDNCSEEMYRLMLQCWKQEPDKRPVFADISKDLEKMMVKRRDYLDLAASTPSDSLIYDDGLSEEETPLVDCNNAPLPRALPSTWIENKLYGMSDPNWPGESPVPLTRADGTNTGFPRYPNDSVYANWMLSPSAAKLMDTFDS
UniProt P41240, sequence (whole entry, looked up): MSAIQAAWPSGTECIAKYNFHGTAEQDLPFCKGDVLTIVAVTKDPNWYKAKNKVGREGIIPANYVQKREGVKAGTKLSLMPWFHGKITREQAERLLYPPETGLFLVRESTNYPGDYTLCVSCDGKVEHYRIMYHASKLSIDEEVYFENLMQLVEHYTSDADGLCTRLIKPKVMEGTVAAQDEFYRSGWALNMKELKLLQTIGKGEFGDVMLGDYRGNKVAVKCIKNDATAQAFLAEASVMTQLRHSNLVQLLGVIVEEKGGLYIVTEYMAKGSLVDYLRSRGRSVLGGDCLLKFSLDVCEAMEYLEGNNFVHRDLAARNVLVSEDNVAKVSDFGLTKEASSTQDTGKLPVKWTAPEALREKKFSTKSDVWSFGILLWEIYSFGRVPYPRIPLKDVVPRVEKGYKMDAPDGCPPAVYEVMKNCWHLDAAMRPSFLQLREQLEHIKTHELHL
UniProt Q04912, sequence (whole entry, looked up): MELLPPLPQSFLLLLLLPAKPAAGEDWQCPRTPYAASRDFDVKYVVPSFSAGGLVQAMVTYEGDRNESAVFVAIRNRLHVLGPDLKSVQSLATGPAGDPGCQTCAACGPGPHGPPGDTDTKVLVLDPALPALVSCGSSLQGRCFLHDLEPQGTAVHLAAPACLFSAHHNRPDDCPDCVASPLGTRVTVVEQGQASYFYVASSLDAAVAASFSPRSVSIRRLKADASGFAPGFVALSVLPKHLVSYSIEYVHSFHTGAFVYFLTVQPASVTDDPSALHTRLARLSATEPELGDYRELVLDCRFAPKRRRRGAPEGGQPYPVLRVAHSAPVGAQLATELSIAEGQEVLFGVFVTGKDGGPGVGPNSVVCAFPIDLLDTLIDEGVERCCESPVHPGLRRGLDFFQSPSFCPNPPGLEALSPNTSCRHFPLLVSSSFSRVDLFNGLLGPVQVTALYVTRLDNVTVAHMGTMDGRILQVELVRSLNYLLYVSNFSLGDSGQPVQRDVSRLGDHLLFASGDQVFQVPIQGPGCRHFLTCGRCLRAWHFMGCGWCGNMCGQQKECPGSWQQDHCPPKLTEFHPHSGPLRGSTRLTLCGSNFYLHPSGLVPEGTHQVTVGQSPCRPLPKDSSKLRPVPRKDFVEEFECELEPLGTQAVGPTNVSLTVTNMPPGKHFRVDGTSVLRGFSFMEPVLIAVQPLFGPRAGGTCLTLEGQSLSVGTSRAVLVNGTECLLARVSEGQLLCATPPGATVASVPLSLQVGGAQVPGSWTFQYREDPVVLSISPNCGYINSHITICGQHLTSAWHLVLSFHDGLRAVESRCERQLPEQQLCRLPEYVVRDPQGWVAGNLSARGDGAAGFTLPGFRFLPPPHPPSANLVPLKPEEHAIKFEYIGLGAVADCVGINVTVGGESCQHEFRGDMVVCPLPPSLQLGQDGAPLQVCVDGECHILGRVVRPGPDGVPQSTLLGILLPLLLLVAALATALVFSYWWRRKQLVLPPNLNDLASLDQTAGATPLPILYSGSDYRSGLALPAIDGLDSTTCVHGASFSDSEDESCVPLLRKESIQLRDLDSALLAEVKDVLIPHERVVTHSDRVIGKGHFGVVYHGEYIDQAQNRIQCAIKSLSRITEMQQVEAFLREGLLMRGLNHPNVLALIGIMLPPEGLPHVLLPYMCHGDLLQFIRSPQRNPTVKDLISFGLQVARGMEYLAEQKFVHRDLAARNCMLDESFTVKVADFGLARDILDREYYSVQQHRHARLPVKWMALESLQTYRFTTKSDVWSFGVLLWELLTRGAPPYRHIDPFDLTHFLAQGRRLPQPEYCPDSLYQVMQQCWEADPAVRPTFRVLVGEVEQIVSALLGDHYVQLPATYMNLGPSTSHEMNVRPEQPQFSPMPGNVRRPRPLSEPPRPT
UniProt P42336, sequence (whole entry, unmodified, looked up): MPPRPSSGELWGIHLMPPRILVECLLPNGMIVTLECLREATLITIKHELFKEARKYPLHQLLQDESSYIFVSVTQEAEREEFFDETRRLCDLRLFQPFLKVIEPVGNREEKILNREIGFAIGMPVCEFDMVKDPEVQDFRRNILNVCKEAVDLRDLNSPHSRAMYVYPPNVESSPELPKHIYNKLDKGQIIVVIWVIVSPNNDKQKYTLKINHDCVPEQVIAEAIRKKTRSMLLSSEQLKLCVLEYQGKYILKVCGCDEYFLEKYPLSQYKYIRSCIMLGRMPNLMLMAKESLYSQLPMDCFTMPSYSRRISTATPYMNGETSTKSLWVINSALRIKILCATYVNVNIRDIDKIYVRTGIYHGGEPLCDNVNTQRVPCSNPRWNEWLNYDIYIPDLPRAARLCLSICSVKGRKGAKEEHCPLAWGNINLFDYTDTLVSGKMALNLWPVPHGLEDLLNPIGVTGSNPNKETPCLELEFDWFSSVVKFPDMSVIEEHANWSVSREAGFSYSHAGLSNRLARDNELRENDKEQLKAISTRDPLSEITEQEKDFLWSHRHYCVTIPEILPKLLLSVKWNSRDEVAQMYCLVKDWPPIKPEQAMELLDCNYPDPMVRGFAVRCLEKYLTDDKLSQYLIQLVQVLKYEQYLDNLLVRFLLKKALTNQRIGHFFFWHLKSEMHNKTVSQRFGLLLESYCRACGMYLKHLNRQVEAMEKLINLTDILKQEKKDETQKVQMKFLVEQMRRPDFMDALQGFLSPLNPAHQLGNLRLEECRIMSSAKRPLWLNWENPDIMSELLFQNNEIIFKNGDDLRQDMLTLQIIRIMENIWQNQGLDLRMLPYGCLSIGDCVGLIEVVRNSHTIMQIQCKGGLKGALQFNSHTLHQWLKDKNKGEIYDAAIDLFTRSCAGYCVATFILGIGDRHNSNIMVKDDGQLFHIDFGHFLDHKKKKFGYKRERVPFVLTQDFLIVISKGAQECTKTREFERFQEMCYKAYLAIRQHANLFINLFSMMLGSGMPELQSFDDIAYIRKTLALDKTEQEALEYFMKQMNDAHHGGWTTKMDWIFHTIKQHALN
UniProt Q9NQU5, sequence (whole entry, looked up): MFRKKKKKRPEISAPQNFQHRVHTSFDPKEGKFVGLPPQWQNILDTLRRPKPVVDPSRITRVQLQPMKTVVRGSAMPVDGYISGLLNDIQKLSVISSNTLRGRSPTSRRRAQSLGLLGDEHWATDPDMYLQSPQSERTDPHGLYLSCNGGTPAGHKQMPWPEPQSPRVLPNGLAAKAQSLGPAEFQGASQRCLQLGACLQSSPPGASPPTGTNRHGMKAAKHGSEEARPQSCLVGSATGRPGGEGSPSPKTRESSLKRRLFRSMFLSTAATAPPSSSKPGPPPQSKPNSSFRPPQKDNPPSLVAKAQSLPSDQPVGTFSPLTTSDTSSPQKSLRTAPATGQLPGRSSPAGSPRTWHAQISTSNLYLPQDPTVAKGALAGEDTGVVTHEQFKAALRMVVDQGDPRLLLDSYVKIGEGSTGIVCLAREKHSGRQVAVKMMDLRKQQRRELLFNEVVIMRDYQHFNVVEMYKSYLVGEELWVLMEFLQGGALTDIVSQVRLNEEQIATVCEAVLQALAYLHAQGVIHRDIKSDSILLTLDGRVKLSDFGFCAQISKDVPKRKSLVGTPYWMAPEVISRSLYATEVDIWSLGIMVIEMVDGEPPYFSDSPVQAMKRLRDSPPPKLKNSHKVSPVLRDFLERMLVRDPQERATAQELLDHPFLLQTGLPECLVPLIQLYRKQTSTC

Set 1 — effect on: cell-free assay; method: competition with immobilised ligand; tested at: 1 µM
Structure (SMILES): CN(c1ccnc(CNc2nc(Nc3ccc4c(c3)CC(=O)N4)ncc2C(F)(F)F)n1)S(C)(=O)=O
target | remaining binding [%]
Ribosomal protein S6 kinase beta-1 (RPS6KB1, Homo sapiens, UniProt P23443) | 50
Tyrosine-protein kinase ITK/TSK (ITK, Homo sapiens, UniProt Q08881) | 93
Proto-oncogene tyrosine-protein kinase ROS (ROS1, Homo sapiens, UniProt P08922) | 43
Serine/threonine-protein kinase PAK 6 (PAK6, Homo sapiens, UniProt Q9NQU5) | 71
Proto-oncogene tyrosine-protein kinase receptor Ret (RET, Homo sapiens, UniProt P07949) | 49
Phosphatidylinositol 4,5-bisphosphate 3-kinase catalytic subunit alpha isoform (PIK3CA, Homo sapiens, UniProt P42336, C420R) | 91
Epidermal growth factor receptor (EGFR, Homo sapiens, UniProt P00533) | 74
Proto-oncogene tyrosine-protein kinase receptor Ret (RET, Homo sapiens, UniProt P07949, V804L) | 21
Macrophage-stimulating protein receptor (MST1R, Homo sapiens, UniProt Q04912) | 72
Tyrosine-protein kinase CSK (CSK, Homo sapiens, UniProt P41240) | 74

Set 2 — target: CCNB2, cyclin fold, Cln2 fusion (human); method: yeast growth competition, sequencing; matrix: yeast; setting: weak parent motif; relative to: not given; direction: higher = stronger binding
Starting sequence: ORC1 docking peptide (human); PRARKRLELGNLG; partner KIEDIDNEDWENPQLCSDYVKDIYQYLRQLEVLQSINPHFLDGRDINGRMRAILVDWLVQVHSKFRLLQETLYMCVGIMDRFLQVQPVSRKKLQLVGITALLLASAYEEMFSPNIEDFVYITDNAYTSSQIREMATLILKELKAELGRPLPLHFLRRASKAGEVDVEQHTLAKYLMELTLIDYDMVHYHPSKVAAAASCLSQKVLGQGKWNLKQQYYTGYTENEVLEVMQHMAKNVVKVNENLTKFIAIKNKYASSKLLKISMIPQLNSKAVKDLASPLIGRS
Variant | normalised enrichment score
R2Y | 0.218
R6N | 0.361
R4V | 0.0422
K5P | 0.377
G10E | 0.608
K5A L7A | 0.334
L12A | 0.522
N11T | 0.766

Set 3 — target: CEP164, C-terminal peptide (human); method: DHFR complementation, deep sequencing; matrix: yeast; relative to: wild type; direction: higher = weaker binding
Setting: single substitutions, model-inferred values
Starting sequence: PDZK1, PDZ domain 2 (human); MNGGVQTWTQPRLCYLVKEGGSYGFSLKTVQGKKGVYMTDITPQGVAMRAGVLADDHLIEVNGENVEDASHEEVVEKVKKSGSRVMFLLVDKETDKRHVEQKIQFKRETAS; partner HNRVKVYRF
Variant | binding free energy change [kcal/mol]
V52A | 0.575
L13C | 0.0312
K92G | -0.0396
H98C | -0.0341
L16T | 1.45
C14G | 1.32
K34R | 0.0885
K77A | 0.0325

Set 4 — effect on: enzyme activity; mode: inhibitor; tested at: 0.5 µM; relative to: control
Target: Tyrosine-protein kinase Tec (TEC, Homo sapiens, UniProt P42680)
Target sequence (P42680 1-631): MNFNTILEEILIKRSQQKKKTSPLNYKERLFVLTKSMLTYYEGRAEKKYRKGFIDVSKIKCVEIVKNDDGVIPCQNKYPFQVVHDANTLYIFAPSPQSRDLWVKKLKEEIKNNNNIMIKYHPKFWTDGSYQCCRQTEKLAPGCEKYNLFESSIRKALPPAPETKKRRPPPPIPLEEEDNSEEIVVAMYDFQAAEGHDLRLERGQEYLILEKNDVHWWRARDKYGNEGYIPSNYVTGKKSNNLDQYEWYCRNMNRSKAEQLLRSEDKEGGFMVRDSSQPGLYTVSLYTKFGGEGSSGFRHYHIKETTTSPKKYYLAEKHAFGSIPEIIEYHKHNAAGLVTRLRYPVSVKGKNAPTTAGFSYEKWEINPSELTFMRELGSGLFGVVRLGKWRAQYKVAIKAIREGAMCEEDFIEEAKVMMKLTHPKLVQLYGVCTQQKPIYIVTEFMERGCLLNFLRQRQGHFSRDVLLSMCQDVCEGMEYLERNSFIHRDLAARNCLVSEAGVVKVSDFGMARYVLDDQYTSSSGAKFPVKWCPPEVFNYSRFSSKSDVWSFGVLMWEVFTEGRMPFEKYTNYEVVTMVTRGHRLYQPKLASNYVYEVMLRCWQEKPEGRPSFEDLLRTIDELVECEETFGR
SMILES | remaining activity
O=C(CCCc1ccc(-c2ccccc2F)cc1)Nc1ccc(O)cc1 | 86%
O=c1c2ccccc2[nH]c(=S)n1CCN1CCC(=C(c2ccc(F)cc2)c2ccc(F)cc2)CC1 | 110%
COc1cc2ncnc(Nc3ccc(Oc4ccccc4)cc3)c2cc1OC | 43.3%
CCOC(=O)c1c(C)[nH]c(/C=C2\C(=O)Nc3ccccc32)c1C | 141%
Nc1ccc2ncnc(NCCc3ccc(Oc4ccccc4)cc3)c2c1 | 88.3%

Some of these lines once more (set 3):
Variant | binding free energy change [kcal/mol]
K92G | -0.0396
H98C | -0.0341
L16T | 1.45
C14G | 1.32
